Results gathered from unrelated publications.
Protocols differ between the studies behind these lines. Several values in a cell are separate wells, animals, samples, runs or records.
Target: Serine/threonine-protein kinase D2 (PRKD2, Homo sapiens, UniProt Q9BZL6)

SMILES	assay	test system	conditions	scale	endpoint	result
C=CC(=O)Nc1cccc(-c2cnc3[nH]cc(C(=O)NC(C)(C)C)c3n2)c1	enzyme activity, inhibitor	–	0.1 µM	–	inhibition	5%
CC(C)=CC1OC(C)(C)C2C=C3C(=O)C(Cl)=CC(O)C3C3C(O)C4OC4C(=O)C132 (centres unmarked)	cell-free assay, competition with immobilised ligand	–	10 µM	–	remaining binding	92%
Nc1ncc2c(n1)-c1c([nH]c3ccc(C4=CCOCC4)cc13)CCC2	binding, competition with immobilised ligand	–	1 µM	–	remaining binding	82%
CCN1CCN(Cc2ccc(C(=O)Nc3ccc(C)c(NCc4cnc5[nH]ccc5c4OC)c3)cc2C(F)(F)F)CC1	binding, competition with immobilised ligand	–	1 µM	–	remaining binding	43%
C=CC(=O)N1CCCC(n2c(=O)c3ncccc3n(Cc3ccc(Oc4ccccc4)cc3)c2=O)C1 (centres unmarked)	cell-free assay, competition with immobilised ligand	–	1 µM	–	remaining binding	92%
O=C(Cc1ccc(OCc2ccccc2)cc1)NC1(C(=O)O)CCN(C(=O)c2ccc(-c3cccc(Cl)c3)cc2)CC1	enzyme activity, inhibitor	–	10 µM	–	activity vs control	100%
COc1cc(Nc2nccc(-c3cnn4nc(OC)ccc34)n2)cc(C(F)(F)F)c1	binding, competition with immobilised ligand	–	1 µM	–	remaining binding	100%
Nc1ncc(-c2cc(-c3cnn(CC(F)(F)F)c3)ncc2F)nc1C(=O)NC1CNCC(F)C1 (centres unmarked)	enzyme activity	–	1 µM	relative to: DMSO control	remaining activity	65.6%
C=CC(=O)N1CCc2ccc(-n3c(=O)ccc4cnc5ccc(-c6cnn(C)c6)cc5c43)cc21	KINOMEscan	–	1 µM	relative to: DMSO control	remaining binding	99%
CS(=O)(=O)Nc1cccc(-c2csc3cnc(Nc4ccc(N5CCN(CCCCCOc6cccc7c6C(=O)N(C6CCC(=O)NC6=O)C7=O)CC5)cc4)nc23)c1 (centres unmarked)	probe labelling, inhibitor, KiNativ chemoproteomics	MOLT-4	1 µM	–	inhibition	-7.94%
Cc1cccc(O[C@H]2CCC[C@@H](C(C)CNCc3ccncc3)C2)c1 (relative stereo)	enzyme activity, inhibitor	–	1 µM	–	inhibition	1%
NC(=O)[C@@H](O)C[C@H]1CCc2sc3ncnc(O[C@H]4CC[C@H](N5CCOCC5)CC4)c3c21	enzyme activity, inhibitor	–	10 µM	–	inhibition	8%
CN1CC[C@@H](COc2cnc(C#N)cc2-c2ccn3nc(NC(=O)C4CC4)cc3c2)C1	enzyme activity, inhibitor	–	1 µM	–	inhibition	6%
COc1c(OCCCN2CCOCC2)ccc2c1N=C(NC(=O)c1cnc(N)nc1)N1CCN=C21	kinase activity, inhibitor	–	1 µM	relative to: untreated control	remaining activity	101%
O=C=[N][Ru-4]123([n]4c5ccc(O)cc5c5c6c(c7cc(F)c[n+]1c7c54)C(=O)NC6=O)[S+]1CC[S+]2CC[S+]3CC1 (centres unmarked)	enzyme activity	–	100 nM, human enzyme, together with: 10 µM ATP	relative to: untreated	remaining activity	103%
COc1c(Cl)cccc1Nc1c(-c2ccncc2C#C[C@@]2(C)CCCN2C(=O)/C=C/CN(C)C)[nH]c2c1C(=O)NCC2	binding, competition with immobilised ligand	–	3 µM	–	remaining binding	94%
N[C@H]1CC[C@H](Nc2nccc(-c3cccnc3Oc3ccc(NC(=O)NC4CC4)c4ccccc34)n2)CC1	kinobead competition pulldown	HEK293/HCT116 lysate mixture	10 µM, 1 h, 4 °C	lower = stronger competition	log2 LFQ intensity	21.6 and 22.7 and 22.9 and 22.3

Repeated from above:
SMILES	assay	test system	conditions	scale	endpoint	result
Nc1ncc(-c2cc(-c3cnn(CC(F)(F)F)c3)ncc2F)nc1C(=O)NC1CNCC(F)C1 (centres unmarked)	enzyme activity	–	1 µM	relative to: DMSO control	remaining activity	65.6%
C=CC(=O)N1CCc2ccc(-n3c(=O)ccc4cnc5ccc(-c6cnn(C)c6)cc5c43)cc21	KINOMEscan	–	1 µM	relative to: DMSO control	remaining binding	99%
